Assay results from different studies.
Protocols differ between the studies behind these lines. Numbers after ± are the reported error.
CHRM5: Muscarinic acetylcholine receptor M5 (CHRM5, Homo sapiens, UniProt P08912)
Chain of UniProt P08912 (whole entry, looked up): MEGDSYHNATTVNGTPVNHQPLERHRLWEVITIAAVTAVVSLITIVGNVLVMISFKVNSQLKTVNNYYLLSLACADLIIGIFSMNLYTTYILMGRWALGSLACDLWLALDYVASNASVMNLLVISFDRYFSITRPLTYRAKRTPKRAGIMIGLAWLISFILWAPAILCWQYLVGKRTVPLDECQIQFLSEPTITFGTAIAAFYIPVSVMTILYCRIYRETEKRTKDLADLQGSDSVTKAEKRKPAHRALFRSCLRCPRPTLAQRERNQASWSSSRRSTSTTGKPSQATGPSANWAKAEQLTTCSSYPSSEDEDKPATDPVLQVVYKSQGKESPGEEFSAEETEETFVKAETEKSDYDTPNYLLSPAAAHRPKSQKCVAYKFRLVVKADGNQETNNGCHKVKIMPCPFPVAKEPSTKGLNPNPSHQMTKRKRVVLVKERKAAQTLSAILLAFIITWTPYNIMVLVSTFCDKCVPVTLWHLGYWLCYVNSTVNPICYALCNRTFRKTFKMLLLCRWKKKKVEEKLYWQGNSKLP
NTSR1: Neurotensin receptor type 1 (NTSR1, Homo sapiens, UniProt P30989)
Chain of UniProt P30989 (whole entry, looked up): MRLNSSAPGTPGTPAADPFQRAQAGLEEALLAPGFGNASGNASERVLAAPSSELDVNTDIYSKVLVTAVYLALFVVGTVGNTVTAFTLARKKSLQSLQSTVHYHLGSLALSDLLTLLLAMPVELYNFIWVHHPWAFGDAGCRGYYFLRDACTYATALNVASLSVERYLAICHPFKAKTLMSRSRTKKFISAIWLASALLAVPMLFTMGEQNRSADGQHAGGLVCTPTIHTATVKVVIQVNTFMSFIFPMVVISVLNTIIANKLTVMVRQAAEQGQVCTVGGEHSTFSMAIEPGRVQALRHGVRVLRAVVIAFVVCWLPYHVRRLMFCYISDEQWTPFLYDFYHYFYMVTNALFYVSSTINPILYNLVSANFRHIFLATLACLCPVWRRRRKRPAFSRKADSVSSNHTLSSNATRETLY
Chain of UniProt P34972 (whole entry, unmodified, looked up): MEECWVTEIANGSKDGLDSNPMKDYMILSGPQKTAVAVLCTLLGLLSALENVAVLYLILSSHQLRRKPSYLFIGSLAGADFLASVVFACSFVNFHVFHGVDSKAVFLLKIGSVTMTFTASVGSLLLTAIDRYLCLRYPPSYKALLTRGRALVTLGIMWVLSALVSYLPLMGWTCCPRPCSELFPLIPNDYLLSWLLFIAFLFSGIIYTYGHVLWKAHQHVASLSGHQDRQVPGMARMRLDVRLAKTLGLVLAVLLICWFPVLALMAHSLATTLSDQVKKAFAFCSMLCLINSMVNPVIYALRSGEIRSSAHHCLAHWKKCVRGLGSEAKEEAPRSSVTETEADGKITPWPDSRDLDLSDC
Chain of UniProt Q969F8 (whole entry, unmodified, looked up): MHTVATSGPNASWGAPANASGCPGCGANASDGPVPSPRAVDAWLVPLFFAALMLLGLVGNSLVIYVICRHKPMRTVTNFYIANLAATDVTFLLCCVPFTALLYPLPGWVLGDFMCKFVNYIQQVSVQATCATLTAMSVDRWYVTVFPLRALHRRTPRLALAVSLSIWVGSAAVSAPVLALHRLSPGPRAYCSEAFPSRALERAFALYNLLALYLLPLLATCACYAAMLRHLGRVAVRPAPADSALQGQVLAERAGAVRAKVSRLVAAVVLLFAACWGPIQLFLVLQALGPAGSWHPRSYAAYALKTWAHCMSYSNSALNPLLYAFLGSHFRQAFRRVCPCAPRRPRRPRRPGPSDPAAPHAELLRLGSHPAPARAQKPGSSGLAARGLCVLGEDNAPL
Chain of UniProt Q9NSD7 (whole entry, unmodified, looked up): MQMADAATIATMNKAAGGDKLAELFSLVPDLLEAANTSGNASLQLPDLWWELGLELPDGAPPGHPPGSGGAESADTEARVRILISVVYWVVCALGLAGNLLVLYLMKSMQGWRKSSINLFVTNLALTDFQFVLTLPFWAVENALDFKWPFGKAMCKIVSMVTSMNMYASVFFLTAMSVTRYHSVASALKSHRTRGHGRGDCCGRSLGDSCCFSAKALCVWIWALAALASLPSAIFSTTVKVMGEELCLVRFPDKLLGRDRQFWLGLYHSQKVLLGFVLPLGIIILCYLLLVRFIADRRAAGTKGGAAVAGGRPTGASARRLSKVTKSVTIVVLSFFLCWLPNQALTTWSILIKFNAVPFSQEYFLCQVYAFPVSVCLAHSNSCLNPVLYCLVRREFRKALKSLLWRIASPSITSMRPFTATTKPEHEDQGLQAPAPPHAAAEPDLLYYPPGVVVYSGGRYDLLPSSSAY
Chain of UniProt P20309 (whole entry, looked up): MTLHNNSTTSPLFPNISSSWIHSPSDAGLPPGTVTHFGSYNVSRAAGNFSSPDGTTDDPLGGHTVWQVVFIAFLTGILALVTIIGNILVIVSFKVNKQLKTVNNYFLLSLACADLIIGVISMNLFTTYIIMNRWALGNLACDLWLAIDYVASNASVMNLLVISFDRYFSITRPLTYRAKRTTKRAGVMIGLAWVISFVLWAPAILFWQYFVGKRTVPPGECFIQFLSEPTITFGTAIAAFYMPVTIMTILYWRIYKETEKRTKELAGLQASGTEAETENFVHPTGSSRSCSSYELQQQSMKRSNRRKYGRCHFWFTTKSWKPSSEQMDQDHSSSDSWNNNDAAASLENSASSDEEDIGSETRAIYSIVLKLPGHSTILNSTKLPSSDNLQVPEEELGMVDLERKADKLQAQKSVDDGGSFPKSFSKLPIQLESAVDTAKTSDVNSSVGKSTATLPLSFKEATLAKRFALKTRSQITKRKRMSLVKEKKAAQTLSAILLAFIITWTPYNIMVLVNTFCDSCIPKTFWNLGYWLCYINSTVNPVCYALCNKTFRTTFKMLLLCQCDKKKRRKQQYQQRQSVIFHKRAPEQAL
Chain of UniProt O09047 (whole entry, looked up): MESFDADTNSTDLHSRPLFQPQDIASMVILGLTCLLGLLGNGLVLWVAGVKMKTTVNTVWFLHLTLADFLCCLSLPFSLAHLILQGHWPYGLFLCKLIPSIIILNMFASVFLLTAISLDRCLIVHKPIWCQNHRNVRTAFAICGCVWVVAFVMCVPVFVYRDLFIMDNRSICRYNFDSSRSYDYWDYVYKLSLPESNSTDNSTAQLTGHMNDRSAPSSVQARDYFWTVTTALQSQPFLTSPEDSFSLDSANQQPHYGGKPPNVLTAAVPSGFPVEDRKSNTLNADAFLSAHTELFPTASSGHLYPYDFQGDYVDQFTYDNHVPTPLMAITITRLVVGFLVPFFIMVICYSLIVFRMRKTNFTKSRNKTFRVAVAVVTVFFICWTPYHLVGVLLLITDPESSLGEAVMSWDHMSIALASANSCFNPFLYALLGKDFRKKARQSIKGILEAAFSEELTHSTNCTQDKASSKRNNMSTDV
Chain of UniProt Q9NUW8 (whole entry, looked up): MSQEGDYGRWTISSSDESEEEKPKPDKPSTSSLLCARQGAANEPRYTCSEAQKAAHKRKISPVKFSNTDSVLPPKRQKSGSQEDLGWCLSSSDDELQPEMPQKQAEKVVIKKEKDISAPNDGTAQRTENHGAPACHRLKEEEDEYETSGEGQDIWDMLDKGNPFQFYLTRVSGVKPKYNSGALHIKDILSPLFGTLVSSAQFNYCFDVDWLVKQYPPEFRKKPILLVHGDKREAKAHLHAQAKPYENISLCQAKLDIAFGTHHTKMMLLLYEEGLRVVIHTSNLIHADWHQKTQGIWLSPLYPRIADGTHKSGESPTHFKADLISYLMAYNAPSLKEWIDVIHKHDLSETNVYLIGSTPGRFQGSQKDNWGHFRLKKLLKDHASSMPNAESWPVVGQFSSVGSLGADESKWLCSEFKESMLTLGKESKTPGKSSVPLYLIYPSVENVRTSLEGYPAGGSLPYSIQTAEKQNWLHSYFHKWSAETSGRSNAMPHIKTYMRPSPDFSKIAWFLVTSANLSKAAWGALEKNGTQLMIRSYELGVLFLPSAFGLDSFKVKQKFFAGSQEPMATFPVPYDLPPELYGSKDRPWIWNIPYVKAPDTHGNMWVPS

SMILES | target or system | test | test system | conditions | how to read | quantity | value
CCCCOc1ccc(C(=O)OCCN2CC=CCC2)cc1 | CHRM5 | – | membranes | 1 µM, 15 h, with: carbachol | relative to: control | Emax | 1.68 ± 0.07 fold
COc1ccccc1C1CCN(c2nc(C3(F)CCC3)nc3c(Cl)cc(N(C)CCO)cc23)CC1 | NTSR1 | β-arrestin recruitment, agonist | HEK-293T | – | – | Emax | 122%
Cc1ncsc1-c1ccc(C(C)NC(=O)C2CC(O)CN2C(=O)C(NC(=O)CCCCCCCCCCN2CCCC(Nc3ncc(Cl)c(Nc4ccccc4S(=O)(=O)C(C)C)n3)C2)C(C)(C)C)cc1 (stereo not shown) | 22Rv1 | RNA-seq, item: PLCH1 mRNA | – | concentration not given | relative to: DMSO | log2 fold change | -2.06
Nc1ncc(-c2cc(-c3cnn(CC(F)(F)F)c3)ncc2F)nc1C(=O)NC1CNCC(F)C1 (stereo not shown) | GRK2 | KINOMEscan | – | 1 µM | relative to: DMSO control | remaining binding | 66%
CCCCCCOc1ccc(C(=O)OCC[N+]2(C)CC=CCC2)cc1 (stereo not shown) | CHRM5 | – | membranes | 100 µM, 15 h, with: carbachol | relative to: control | Emax | 1.3 ± 0.1 fold
COc1cc(Br)ccc1C=NOCc1ccc2nc(-c3ccccc3)c(Nc3ccc(C(=O)O)cc3)n2c1 | TDP1 (Homo sapiens, UniProt Q9NUW8) | enzyme activity, inhibitor | – | 100 µM, unpurified compound | – | inhibition | 35.5%
CCCCCCOc1ccc(C(=O)OCCN2CC=CCC2)cc1 | CHRM3 (Homo sapiens, UniProt P20309) | – | membranes | 1 µM, 15 h, with: carbachol | relative to: control | Emax | 1.5 ± 0.1 fold
COC1CN([C@H]2CC[C@H]([C@@]3(C)Oc4c(Cl)cc(C(=O)NCc5c(SC)cc(C)[nH]c5=O)c(C)c4O3)CC2)C1 | – | RNA-seq, item: ACKR2 | human, whole blood | dose not given, 24 h | relative to: pretreatment baseline | log2 fold change | 3.41
O=C1C[C@H](c2nc(-c3ccc(F)c4cn[nH]c34)no2)CCCN1c1ccc(F)cc1 (racemic) | CNR2 (Homo sapiens, UniProt P34972, H95A) | cAMP, agonist, luciferase | – | – | – | Emax | 50.3%
COc1ccccc1C1CCN(c2nc(C3CC3)nc3c(C)cc(N(C)CCO)cc23)CC1 | NTSR1 | β-arrestin recruitment, agonist | HEK-293T | – | – | Emax | 89.6%
CCc1cc(O)cc2c(/C=N/NC(=N)NCCc3ccc(Cl)cc3)c[nH]c12 | RXFP3 (Homo sapiens, UniProt Q9NSD7, S159A) | – | HEK-293T | – | relative to: wild type | Emax | 76.4 ± 4%
CC(C)C[C@H](NC(=O)[C@H](C)NC(=O)[C@H](CO)NC(=O)[C@@H]1CCCN1C(=O)[C@@H]1CCCN1C(=O)[C@H](CCC(N)=O)NC(=O)[C@H](CC(C)C)NC(=O)[C@@H](N)[C@@H](C)O)C(=O)N[C@@H](CCCNC(=N)N)C(=O)N[C@@H](CCCNC(=N)N)C(=O)N[C@@H](CCCNC(=N)N)C(=O)N[C@@H](Cc1c[nH]cn1)C(=O)N[C@@H](Cc1ccc(O)cc1)C(=O)N[C@@H](Cc1c[nH]cn1)C(=O)N[C@@H](Cc1c[nH]cn1)C(=O)N[C@@H](C)C(=O)N[C@@H](CC(C)C)C(=O)N1CCC[C@H]1C(=O)N1CCC[C@H]1C(=O)N[C@@H](CO)C(=O)N[C@@H](CCCNC(=N)N)C(=O)O | C3a anaphylatoxin chemotactic receptor (C3ar1, Mus musculus, UniProt O09047) | GoA protein dissociation, agonist, NanoBiT | – | – | relative to: TLQP-21 | Emax | 37 ± 1.18%
CNC(=N)NCCC[C@H](NC(=O)[C@H](CC(C)C)NC(=O)NNC(=O)[C@H](Cc1ccccc1)NC(=O)[C@@H](NC(=O)[C@H](CC(N)=O)NC(=O)[C@@H]1C[C@@H](O)CN1C(=O)[C@@H](Cc1ccc(O)cc1)NC(C)=O)[C@@H](C)O)C(=O)N[C@@H](Cc1c[nH]c2ccccc12)C(N)=O | KiSS-1 receptor (KISS1R, Homo sapiens, UniProt Q969F8, T99A) | inositol phosphate, agonist | HEK293 | – | – | Emax | 93.9%
